Experimental data pooled from the literature.
Parts stem from different laboratories: compare values within a part only.

Sample 1
Target: Histone acetyltransferase KAT6A, winged helix 1, GST fusion (KAT6A, Homo sapiens, UniProt Q92794, residues 1-85)
Method: protein binding microarray
Form: double-stranded DNA, one strand shown
Medium: in vitro
Tested at: not given
Setting: 8-mer, flanks averaged, mean of 2 arrays, mostly near background
Baseline: not given
Direction: higher = stronger binding
Quantity: E-score
Construct (chain): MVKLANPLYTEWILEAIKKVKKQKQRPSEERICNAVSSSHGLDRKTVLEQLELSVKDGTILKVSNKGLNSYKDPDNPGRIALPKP
ACGCGTCA: 0.211
AGCTTACA: -0.0151
AGAAAGAG: -0.266
CTCTTACC: -0.0286
GCGGTCTA: 0.257
ATATTCCC: 0.0597
CATTAATG: -0.00416
CCCGTGAC: 0.336
AGCCTACG: 0.156
GCTATTAC: 0.176
AACGTCCT: -0.0786
GTGCACAC: -0.139
AACTTGTG: -0.218
ATACCCCC: -0.0241
CTACTGGC: 0.023
CAACATGA: 0.0365
AACACCAC: -0.106

Sample 2
Target: Ras GTPase-activating protein-binding protein 1, RRM domain (G3BP1, Homo sapiens, UniProt Q13283)
Sequence of UniProt Q13283 (whole entry, looked up): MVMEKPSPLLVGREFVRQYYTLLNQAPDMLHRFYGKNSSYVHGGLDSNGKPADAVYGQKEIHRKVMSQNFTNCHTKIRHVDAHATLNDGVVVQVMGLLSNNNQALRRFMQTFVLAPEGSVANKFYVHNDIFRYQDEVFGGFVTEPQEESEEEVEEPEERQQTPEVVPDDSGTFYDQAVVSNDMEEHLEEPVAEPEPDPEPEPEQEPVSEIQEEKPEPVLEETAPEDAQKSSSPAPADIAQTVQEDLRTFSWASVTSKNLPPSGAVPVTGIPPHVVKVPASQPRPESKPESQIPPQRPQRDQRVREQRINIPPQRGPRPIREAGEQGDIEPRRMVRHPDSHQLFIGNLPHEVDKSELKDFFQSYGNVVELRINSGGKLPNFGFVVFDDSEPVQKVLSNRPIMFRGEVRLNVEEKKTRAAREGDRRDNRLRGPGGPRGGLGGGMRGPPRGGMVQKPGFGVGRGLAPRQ
Method: RNA Bind-n-Seq
Form: RNA
Medium: in vitro
Tested at: 1 µM
Setting: whole 134-nt RNA, ends assumed
Together with: 150 mM KCl
Baseline: input library
Direction: higher = stronger binding
Quantity: log2 enrichment
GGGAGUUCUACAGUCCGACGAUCACCAUGCAGGUGGGAAACUUUGGGAAGUGGGGCAAGGGGGGGAUAGGGAGGGGGGUAACACUUUGGGAACAGGUGGUCCCAGGUCGUUUCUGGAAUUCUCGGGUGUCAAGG: -0.301
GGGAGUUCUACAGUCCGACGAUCCUCAAGUCCUGUGCUACACAUCGUAUGUACCGAAUCGGGCCGGCCGGGGCCGGGAAAGUAUUAUGUUACGCCGUUCGGAUCUGCACUUCCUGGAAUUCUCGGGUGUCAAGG: -0.451
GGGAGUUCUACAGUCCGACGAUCCACAGACAACACCCACCCACACAGACACAGAGGGAAGGGGUUGGGAUGGGGACAGGGUGCACAGCAGGGCGGGGUAGGACCCCAGCCCCUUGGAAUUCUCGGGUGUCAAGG: -0.0381
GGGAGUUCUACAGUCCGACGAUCUUUUCAAGGGGGCCCCAACUGGGGCCGCCUUGUAGCCUUCUUUGUCUUUGGGGCUGCACUGUGUGCUGAGAGUGUCAACAAGGAGAUGGAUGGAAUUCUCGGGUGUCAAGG: -0.506
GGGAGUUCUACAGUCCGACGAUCUUGUGGGAGGAUUUUGAGAUACUUAUUCUUUAUUUGAGCCAGUCUUGCAAGGUUAACUUCUCACUGGGCCUAGUGUGGUGCCCAGGUUUUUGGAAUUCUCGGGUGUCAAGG: -0.429
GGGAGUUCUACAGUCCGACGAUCCAAGUCCUGUGCUACACAUCGUAUGUACCGAAUCGGUUUUUGGAAAAAGGAAAGGAAAGUAUUAUGUUACGCCGUUCGGAUCUGCACUUCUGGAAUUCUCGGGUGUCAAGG: -0.172
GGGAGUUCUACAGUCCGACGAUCUCAAGUCCUGUGCUACACAUCGUAUGUACCGAAUCGGUUUGGUGGAAAAAAAGGAAAGUAUUAUGUUACGCCGUUCGGAUCUGCACUUCCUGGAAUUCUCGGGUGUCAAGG: -0.109
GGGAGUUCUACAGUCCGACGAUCGUCCUGUGCUACACAUCGUAUGUACCGAAUCGGGGUUUGGGGUUUUUGGGGAAAGGGGAAAGUAUUAUGUUACGCCGUUCGGAUCUGCACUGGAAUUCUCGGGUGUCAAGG: 1.46
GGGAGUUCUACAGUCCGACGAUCUCCUGUGCUACACAUCGUAUGUACCGAAUCGGGGAAAAAAGGGAAAAAAGGGAAAAAAGGAAAGUAUUAUGUUACGCCGUUCGGAUCUGCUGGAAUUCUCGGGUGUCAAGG: 0.0757
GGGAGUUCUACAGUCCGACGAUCCCUCAAGUCCUGUGCUACACAUCGUAUGUACCGAAUCGGGGAGGAGGGAGGGAAAGUAUUAUGUUACGCCGUUCGGAUCUGCACUUCCAGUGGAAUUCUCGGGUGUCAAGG: 0.0218

Sample 3
Target: RNA binding protein fox-1 homolog 2, RRM domain, GST-SBP tag (RBFOX2, Homo sapiens, UniProt O43251-10, residues 100-194)
Method: RNA Bind-n-Seq
Form: RNA
Medium: in vitro
Tested at: 365 nM
Setting: natural RNA segment, single round, ends assumed
Baseline: no-protein control
Direction: higher = stronger binding
Quantity: RBNS enrichment (R)
Construct (chain): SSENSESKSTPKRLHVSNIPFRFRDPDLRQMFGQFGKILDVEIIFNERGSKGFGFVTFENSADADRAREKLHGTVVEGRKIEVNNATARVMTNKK
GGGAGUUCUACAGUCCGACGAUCUGUUAUACUUUGGACAGACAGAGUUUUAAAAAUGGAAUUAUUUUUUCUUUCAUGCCUCUUGUAAUGUUCUGAACAAACUUGAAUGAUGAAAGUAUUAAAGAGAUAUCAGUUGGAAUUCUCGGGUGCCAA: 0.464
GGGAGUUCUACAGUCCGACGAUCAUCAGAGGUCUAAUGGUAGCAAACGACACAGCGACCUUCUUCAUUACUUUGGCCAAGGUUGAAGAUGGCUGUGACGCUAUUAUGCAGGUGUGCACUAGAAAACCCAGUGGUGGAAUUCUCGGGUGCCAA: 0.383
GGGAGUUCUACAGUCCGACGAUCCUCAACUUUUCUGCCACCAGACUGUUAACUUUGCUAAAUGGCUCAAGAACAGUCAGUUAGCCCUGCUGUCUUGACUAUGUUGUUUUUAAUCACUGUGACCUCUGAAUUUUUGGAAUUCUCGGGUGCCAA: 0.365
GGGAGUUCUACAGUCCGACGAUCCCACACUUGACAUGCGGAGCAAUCCUGCAUGUUGGUCCCCAUCUCCCCCACUAGAAACCCACUUCCAGAGUCAUGUUUGCAUCACAGUCAAAAGAGAAGUCUGUGCACCUUGGAAUUCUCGGGUGCCAA: 0.747
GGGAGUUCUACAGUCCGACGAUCUGGAUGCACGUGAGUGGGUAGCAGGGAGUCAGGAUCCUGCCUUCUCCAGCAACCCCUUACUGCUGUAUAACUUGCAUAAGCCUCCCUGGUGACUCUUGCAGGAACCACUCUGGAAUUCUCGGGUGCCAA: 0.233
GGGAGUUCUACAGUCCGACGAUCGAUGUUGGGAAUGGACUGGGUUUUAAAAGGGAGCUUGAAGAGGGAAUGUUUGACAGUCACAGAAGGUUCCUGCAGCAGAUGCCUCUUUUAGCCAUUUCUCAUUUUUUUCCUGGAAUUCUCGGGUGCCAA: 0.584
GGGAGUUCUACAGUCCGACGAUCUUUCUGAAAGUGAUGGAAAAUGUUGUCUUGUGCAGACAACAUCAUGGCUCUUGGCAGUUUAAAUUUAGUAAUUUUAAUUUAGUGAACAGAAUUGAGAAGAACGUGCCAAAUGGAAUUCUCGGGUGCCAA: 0.313
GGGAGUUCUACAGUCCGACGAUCGGGGAGCCUCUUUUCUCAGGCUUGACACCUGUCUGAAUAAGAGUGAUUAGAGCCGCAUAAUAUCCCUCUCUUGGCUAUUGAAUAAGUGGUUCACAUACCCAACCCUGUAGUGGAAUUCUCGGGUGCCAA: 0.339
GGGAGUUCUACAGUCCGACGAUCGCUUUCCUAUAAGCCACCUCCAGGGUCCAGGGGCUUUCUCUCUCUCUCCGAAGCCCCUGGACCUGUUUCCUUGUCAUUUGACCCUCGUCUGUGCCCGCGGAGACCUCCUCUGGAAUUCUCGGGUGCCAA: 0.53
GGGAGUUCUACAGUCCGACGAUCCCUUCUCUCCUCCCUGCCUAGAUCAGUCCUUCUCCAAAAGGACCUGGGAGCUGGCAGCCUGGGCAGGGGGGCUGAGGCACGUGGUAGCCCUCUUUCUGUGAAUGGGGUGGUGGAAUUCUCGGGUGCCAA: 0.474
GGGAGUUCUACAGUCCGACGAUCGGAAGAGGACACGCCAGAGCUUCAGUGAGGUUUCCGAGCCUCUCCCUGCCCAUCCUCACCACUGAGGCCACGACAAAGCACAGCUCCAGCUCGGACAGCACCCUCAGUGCUGGAAUUCUCGGGUGCCAA: 0.403
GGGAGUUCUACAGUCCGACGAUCAGAAUGUACAUCAUCCCUCUUGGCCCAUUACAGUACUGCUCUCAGGUUCCUAUCAGUCCAUAUAAACUCACUGACCAUAUGGUCAGCCUGGACCGGCCUUCUCAGAUGGCUGGAAUUCUCGGGUGCCAA: 0.242

Sample 4
Target: Sal-like protein 4, full length isoform B (SALL4, Homo sapiens, UniProt Q9UJQ4-2, residues 1-616)
Method: universal PBM
Form: double-stranded DNA, one strand shown
Medium: in vitro
Tested at: not given
Setting: 8-mer, flanks averaged, mean of replicates
Direction: higher = stronger binding
Quantity: E-score
Residues (chain): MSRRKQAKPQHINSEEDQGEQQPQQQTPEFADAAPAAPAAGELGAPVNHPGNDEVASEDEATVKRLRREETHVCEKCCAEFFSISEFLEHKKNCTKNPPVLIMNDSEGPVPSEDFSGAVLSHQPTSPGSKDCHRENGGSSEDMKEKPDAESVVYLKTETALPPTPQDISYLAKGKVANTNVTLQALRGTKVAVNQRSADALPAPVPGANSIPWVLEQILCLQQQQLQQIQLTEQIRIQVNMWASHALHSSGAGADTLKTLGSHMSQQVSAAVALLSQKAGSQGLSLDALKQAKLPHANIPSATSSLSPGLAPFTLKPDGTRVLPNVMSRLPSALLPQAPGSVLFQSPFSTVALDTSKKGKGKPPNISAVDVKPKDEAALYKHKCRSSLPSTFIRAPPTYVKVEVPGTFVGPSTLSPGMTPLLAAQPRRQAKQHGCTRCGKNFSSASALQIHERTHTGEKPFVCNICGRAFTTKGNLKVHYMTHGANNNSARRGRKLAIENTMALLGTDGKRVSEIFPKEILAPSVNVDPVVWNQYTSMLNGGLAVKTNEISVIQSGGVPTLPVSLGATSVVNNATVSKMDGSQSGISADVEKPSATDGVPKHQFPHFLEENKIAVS
CATGTTTA: 0.26
ACGGGTGA: -0.246
ACGTGTTC: 0.0228
ACTCCTGC: 0.0346
ATTTTCAG: 0.269
CAAGACAG: -0.12
CGAAAAAA: 0.238
TGTGCAAA: 0.102
AGTAGACA: 0.0591
AGGTGCAG: -0.188
GAGTGGAA: 0.138
AATCCAGC: -0.132
ATGAAGCC: 0.0107
AGCATCAA: 0.221
GGCTGTGA: -0.139
CCTACTTC: -0.0828
GCGTACGC: -0.0487
CGGAGATC: -0.279
GCTATTGA: 0.0521
AACTCGCC: -0.144
CTACCTAG: 0.0528
CCATGTTC: -0.0493
CCTTCAAG: -0.0532
AGTTTTCA: 0.23
GACTCGCC: -0.33
